Assay results of several laboratories.
Protocols differ between the studies behind these lines. ± gives the spread as reported. Values after ≈ are worked out from the molar mass of the structure shown.
UniProt P54753, sequence (whole entry, looked up): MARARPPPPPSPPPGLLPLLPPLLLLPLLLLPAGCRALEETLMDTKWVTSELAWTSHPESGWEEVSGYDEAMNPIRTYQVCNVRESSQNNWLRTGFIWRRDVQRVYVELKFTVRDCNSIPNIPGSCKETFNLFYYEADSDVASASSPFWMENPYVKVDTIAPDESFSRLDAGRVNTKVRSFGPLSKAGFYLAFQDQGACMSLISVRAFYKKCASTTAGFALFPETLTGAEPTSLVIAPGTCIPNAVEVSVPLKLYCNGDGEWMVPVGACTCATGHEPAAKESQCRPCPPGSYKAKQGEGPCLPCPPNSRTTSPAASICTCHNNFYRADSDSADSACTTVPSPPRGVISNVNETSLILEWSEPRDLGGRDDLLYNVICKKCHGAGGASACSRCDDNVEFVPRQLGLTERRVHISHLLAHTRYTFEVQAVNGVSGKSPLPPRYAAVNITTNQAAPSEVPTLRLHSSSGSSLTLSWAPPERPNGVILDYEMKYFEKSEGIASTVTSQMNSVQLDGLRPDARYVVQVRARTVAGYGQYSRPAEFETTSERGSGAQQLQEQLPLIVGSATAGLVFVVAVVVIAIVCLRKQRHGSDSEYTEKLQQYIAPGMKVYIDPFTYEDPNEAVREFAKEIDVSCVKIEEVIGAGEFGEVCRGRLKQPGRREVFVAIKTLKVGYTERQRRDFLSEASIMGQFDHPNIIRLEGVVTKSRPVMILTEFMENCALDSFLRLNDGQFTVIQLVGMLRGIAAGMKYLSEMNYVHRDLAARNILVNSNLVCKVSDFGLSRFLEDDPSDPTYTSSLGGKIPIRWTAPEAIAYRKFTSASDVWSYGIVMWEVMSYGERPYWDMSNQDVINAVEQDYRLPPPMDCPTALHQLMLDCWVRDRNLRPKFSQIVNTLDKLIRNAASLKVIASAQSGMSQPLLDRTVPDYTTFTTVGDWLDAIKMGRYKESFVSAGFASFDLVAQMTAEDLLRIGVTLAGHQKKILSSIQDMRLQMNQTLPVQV

O=C(Nc1cc(-c2ccc(Cl)cc2)[nH]n1)C1CCCCC1 gave a remaining activity of 82% (EPHB3 (Homo sapiens, UniProt P54753); enzyme activity, Dundee kinase panel; 10 µM).
With COCCOc1cnc2ccn([C@H](C)c3nnc4c(F)cc(-c5cnn(C)c5)cn34)c(=O)c2c1 the half-life was 6.9 h (patients, plasma; oral, 50 mg once daily, day 1).
The MBC of Cc1ccc(N=Nc2c(N)nn3c(-c4ccc(C)cc4)cc(-c4ccc(OCc5ccccc5)cc4)nc23)cc1 is reported as 31.3 µg/mL (≈ 59.7 µM) (Bacillus pumilus; broth microdilution; MTCC 2296).
For CCOc1c([C@H](C)n2nc(C)c3c(N)ncnc32)cc(Cl)c(F)c1[C@@H]1CNC(=O)C1, the half-life was 8 ± 0.7 h (patients, monotherapy; oral, 30 mg once daily, cycle 1 day 15).
With COc1cccc(NC(=O)Cn2cc(COc3ccc(-c4nc5ccccc5c(=O)n4Nc4ccc([N+](=O)[O-])cc4[N+](=O)[O-])cc3OC)nn2)c1 the inhibition was 21.1 ± 5.43% (mushroom tyrosinase; enzyme activity; 40 µM, added: L-DOPA).
For O=C(NCc1ccccc1)c1cn(Cc2ccc(C(F)(F)F)cc2)c2ccc(Oc3ccccc3)cc2c1=O, the CC50 was 11.7 ± 0.47 µM (MDA-MB-231/LM2-4; DNS; 72 h, 10% FBS).
With COc1cc(-c2nc3ccccc3c(=O)n2Nc2ccc([N+](=O)[O-])cc2[N+](=O)[O-])ccc1OCc1cn(CC(=O)Nc2ccc(Br)cc2)nn1 the inhibition was 41.6 ± 2.39% (mushroom tyrosinase; enzyme activity; 40 µM, added: L-DOPA).
The MBC/MIC ratio of CC1(C)S[C@@H]2[C@H](NC(=O)Cc3ccccc3)C(=O)N2[C@H]1C(=O)O is reported as 2 (Enterococcus faecalis; broth microdilution; MTCC 0459).

A few entries again:
The MBC/MIC ratio of CC1(C)S[C@@H]2[C@H](NC(=O)Cc3ccccc3)C(=O)N2[C@H]1C(=O)O is reported as 2 (Enterococcus faecalis; broth microdilution; MTCC 0459).
